Measured values of several laboratories.
Compare with care: the assays were run in different laboratories. Several values in a cell are separate wells, animals, samples, runs or records. ± marks the error that the study gave.

SMILES	cell line	test	conditions	scale	endpoint	value
NC(=S)N/N=C1\C(=O)N(CCn2ncc3c(=O)[nH]cnc32)c2ccc(Cl)cc21	A498	cell growth, SRB	72 h		IC50	5.83 ± 2.81 µg/mL
Cc1n[nH]c2nc(-c3ccc(Cl)cc3)c3c(NC(=O)c4ccccc4)nnc-3n12	A498	SRB	10 µM, NCI60 single-dose screen	reference: untreated	cell growth	106%
Clc1ccc(-c2csc(NN=C3CCCC3)n2)cc1	OCI-Ly1		1 µM, 120 h		viability	88%
O=C(Nc1nnc2n3c(=S)[nH][nH]c3nc(-c3ccc(Cl)cc3)c1-2)c1ccccc1	A498	SRB	10 µM, NCI60 single-dose screen	reference: untreated	cell growth	101%
Cn1cncc1C1=CN(c2ncnc3[nH]cnc23)CCS1	A498		renal cancer		TGI	18.2 µM
CNC(=O)c1cc(Oc2ccc(NC(=O)Nc3ccc(Cl)c(C(F)(F)F)c3)cc2)ccn1	A498	cell growth, SRB	72 h		IC50	29.4 ± 12 µg/mL
O=C(CCCCCCC(=O)Nc1ccc([C@H]2O[C@@H](CSc3nc(-c4ccccc4)c(-c4ccccc4)o3)C[C@@H](c3ccc(CO)cc3)O2)cc1)NO	OCI-Ly1		0.1 µM, 120 h		viability	186%
CCN(CC)c1ccc(C=NNC(=O)CSc2nc3ccccc3c(=O)n2Cc2ccc(S(N)(=O)=O)cc2)c(O)c1	A498	NCI five-dose screen			TGI	> 100 µM
O=C(Nc1nnc2[nH]c(=S)[nH]c(-c3ccc(Cl)cc3)c1-2)c1ccccc1	A498	SRB	10 µM, NCI60 single-dose screen	reference: untreated	cell growth	97.3%
C#C[C@@]1(O)[C@@H](CO)O[C@@H](n2ccc3c(N)ncnc32)[C@@H]1O	A498	SRB	NCI-60 screen		TGI	3.74 µM
O=C1C(=O)N(CCn2ncc3c(=O)[nH]cnc32)c2ccccc21	A498	cell growth, SRB	72 h		IC50	18.3 ± 2.29 µg/mL
CCn1cc(-c2cc(Cn3ccnc3)cc3c2CCN([C@H](c2cc(OC)ccn2)C2CC2)C3=O)c(C(F)(F)F)n1	A498	cell growth, inhibitor	120 h		EC50	> 30 µM
C#C[C@@]1(O)[C@@H](CO)O[C@@H](n2cc(I)c3c(N)ncnc32)[C@@H]1O	A498	SRB	NCI-60 screen		TGI	1.03 µM and 1.98 µM
O=C1NC(=NCc2cccs2)S/C1=C\c1ccc2ncccc2c1	A498	MTS	NCI60 panel		IC50	> 10 µM
O=C(Nc1nnc2n3c(nc(-c4ccc(Cl)cc4)c1-2)SCC3=O)c1ccccc1	A498	SRB	10 µM, NCI60 single-dose screen	reference: untreated	cell growth	108%
COC(=O)/C=C1\C(=O)C=C2C3CC4CC(CCC4(C)N21)C3(C)NC(C)=O (stereo not drawn)	A498	cell growth	NCI screen		IC50	18.7 µM
COc1ccc2c(c1)C(=O)C(=O)N2CCn1ncc2c(=O)[nH]cnc21	A498	cell growth, SRB	72 h		IC50	10.2 ± 3.51 µg/mL
CCOC(=O)CSc1nc(-c2ccc(Cl)cc2)c2c(NC(=O)c3ccccc3)nnc-2[nH]1	A498	SRB	10 µM, NCI60 single-dose screen	reference: untreated	cell growth	108%
